Results gathered from unrelated publications.
Numbered parts are unrelated; each lists some results of a single study. Changes are numbered by the printed parent chain.

Study 1
Target: HLF, bZIP domain (human)
Technique: DHFR protein complementation
Sample: yeast
Notes: single substitutions, most at no-binding floor
Baseline: wild-type JUN-FOS pair
Reading: higher = stronger binding
Starting sequence: JUN, bZIP domain (human); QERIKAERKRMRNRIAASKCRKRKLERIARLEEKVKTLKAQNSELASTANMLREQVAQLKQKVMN; partner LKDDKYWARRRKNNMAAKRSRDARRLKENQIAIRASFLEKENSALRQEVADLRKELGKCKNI
Variant	binding fitness [natural log]
S43K	-1.23
A57L	-1.47
A57V	-1.51
R30G	-1.37
N42V	-1.49
M51E	-1.34
K34Q	-1.46
T48C	-1.46
I28W	-1.4

Study 2
Target: Interferon regulatory factor 7, full length, phosphomimetic (IRF7, Homo sapiens, UniProt Q92985, residues 1-503, S471D/S472D/S475D/S476D/S477D/S483D/S484D/S487D)
Chain of UniProt Q92985 (whole entry, unmodified, looked up): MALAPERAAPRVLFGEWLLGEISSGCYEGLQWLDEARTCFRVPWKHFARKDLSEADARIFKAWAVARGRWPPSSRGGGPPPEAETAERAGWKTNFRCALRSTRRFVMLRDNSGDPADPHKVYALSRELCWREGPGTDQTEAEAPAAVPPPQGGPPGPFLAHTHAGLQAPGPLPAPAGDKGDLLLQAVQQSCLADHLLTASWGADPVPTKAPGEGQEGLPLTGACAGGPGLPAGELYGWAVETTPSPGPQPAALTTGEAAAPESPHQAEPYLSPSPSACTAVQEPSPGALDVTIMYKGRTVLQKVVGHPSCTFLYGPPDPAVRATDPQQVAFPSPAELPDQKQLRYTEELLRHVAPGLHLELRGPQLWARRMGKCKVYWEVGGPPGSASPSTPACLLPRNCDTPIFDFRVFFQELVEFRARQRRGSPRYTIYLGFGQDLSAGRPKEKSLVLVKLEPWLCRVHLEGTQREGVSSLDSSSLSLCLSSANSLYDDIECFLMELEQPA
Technique: protein-binding microarray
Molecule type: double-stranded DNA, one strand shown
Sample: in vitro
Tested at: 2200 nM top
Notes: 60-bp whole probe
With: salmon DNA 0.4 mg/ml
Baseline: random background probes
Reading: higher = stronger binding
All sequences stand within: GCCTAGCAC … GTCTTGATTCGCTTGACGCTGCTG
Strand	fitted relative affinity
GACGAACTGGGGTTTCGAGTCGTGCTA	3.1 z-score
ATTGATAGTTTCACAATGCCGTGCTAG	3.52 z-score
GACGATATCGGGACTGGAGCCGTGCTA	-0.371 z-score
GACGGACTGGGGACTGGGTACGTGCTA	-0.801 z-score
GACGATCTCAGACTGGGGACGTGCTAG	-0.0609 z-score
TCATGACTGGAGTCTGGAACTGTGCTA	-0.11 z-score
CTCACTCTGTCCCTCTGTGAGTGCTAG	1.8 z-score
TTAGAACTGGGGACTGGACTAGTGCTA	-0.595 z-score
TTAGGACTGCTTCTCCTATAGTGCTAG	0.882 z-score
TCACATACTGATTTCCAACTGTGCTAG	1.81 z-score
GACTGACTGGGTCTCGGGACGTGCTAG	-0.55 z-score
GACGGTTTCGACTTTCGGGAAGTGCTA	7.62 z-score
TCATTTTTTCTAATTGAACTGTGCTAG	2.21 z-score
TCAAAACTCGTATGTGACACTGTGCTA	0.107 z-score
CTTTGACTCTTTCTGTCAGTGTGCTAG	1.29 z-score
GATGGTATCCTTTTCCTGACGTGCTAG	1.46 z-score
TCAAGTTTTAATAACACACTGTGCTAG	-0.078 z-score
AATTTGAGAACGGAAACCAAGTGCTAG	-0.291 z-score
GACGGGCTGCTACTGCTGACGTGCTAG	-0.72 z-score
TTTCCTTCCTCTTTTACCCCGTGCTAG	5.47 z-score
TTAGGTTTCGGACTGGGTCAGTGCTAG	3.25 z-score

Study 3
Target: ABI1, truncated, D143A, DHFR fusion (Arabidopsis thaliana)
Technique: DHFR PCA, deep sequencing
Sample: yeast
Notes: methotrexate growth selection, single substitutions
With: (+)-ABA 2500 µM
Baseline: wild-type fitted maximum
Reading: higher = stronger binding
Starting sequence: PYL1, truncated, DHFR fusion (Arabidopsis thaliana); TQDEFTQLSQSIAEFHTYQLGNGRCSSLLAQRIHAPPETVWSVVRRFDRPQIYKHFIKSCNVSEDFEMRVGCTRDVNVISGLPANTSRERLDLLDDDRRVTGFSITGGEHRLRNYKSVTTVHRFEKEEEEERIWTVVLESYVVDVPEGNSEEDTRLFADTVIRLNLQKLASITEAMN
Variant	relative binding score
S59D	98.5%
R69M	92.1%
E14G	88.8%
W41L	-2.78%
K126I	104%
I172G	78.3%
H34C	109%
E152V	93.8%
T173V	95.1%
D96I	85.2%
I172C	92.7%
W41G	-39.3%
C60L	88.7%
I105N	89.4%
V43G	27.9%
R113T	111%
H55E	91.5%
C72W	93.4%
V142I	93.4%
Q7Y	108%
F103M	102%
R155D	25%
C72R	90%
N114A	93.2%
Q31P	-4.63%

Study 4
Target: TAR DNA-binding protein 43, full length, His tag (TARDBP, Homo sapiens, UniProt Q13148, residues 1-414)
Technique: RNA Bind-n-Seq
Molecule type: RNA
Sample: in vitro
Tested at: 20 nM
Notes: 6-mer, flanks averaged, single round
With: 150 mM LiCl
Baseline: input library
Reading: higher = stronger binding
Strand	6-mer enrichment (R)
UCAUAC	0.828
AGGCUG	0.983
CUGAUC	0.841
CUCACU	0.868
UUGGAU	1.01
CCGUGA	0.878
GUUCCU	0.946
CUUGUU	1.14
GCAAGU	0.975
UCUUUC	0.994
CUUAGA	0.846
GCUAAG	0.9
GAUCUG	0.89
GUCGUA	0.966
ACGAGA	0.849
CUUAUC	0.907
AAACGC	0.811
UGCUCA	0.869
UGCAGU	1.02
ACGACU	0.79
GUAAGU	1.1
UGCUUC	0.928
AGAGUG	1.28
ACCAUC	0.866
UGUCUU	1.06

Study 5
Target: Sal-like protein 4, full length isoform B (SALL4, Homo sapiens, UniProt Q9UJQ4-2, residues 1-616)
Technique: universal PBM
Molecule type: double-stranded DNA, one strand shown
Sample: in vitro
Tested at: not given
Notes: 8-mer, flanks averaged, mean of replicates
Reading: higher = stronger binding
Construct (chain): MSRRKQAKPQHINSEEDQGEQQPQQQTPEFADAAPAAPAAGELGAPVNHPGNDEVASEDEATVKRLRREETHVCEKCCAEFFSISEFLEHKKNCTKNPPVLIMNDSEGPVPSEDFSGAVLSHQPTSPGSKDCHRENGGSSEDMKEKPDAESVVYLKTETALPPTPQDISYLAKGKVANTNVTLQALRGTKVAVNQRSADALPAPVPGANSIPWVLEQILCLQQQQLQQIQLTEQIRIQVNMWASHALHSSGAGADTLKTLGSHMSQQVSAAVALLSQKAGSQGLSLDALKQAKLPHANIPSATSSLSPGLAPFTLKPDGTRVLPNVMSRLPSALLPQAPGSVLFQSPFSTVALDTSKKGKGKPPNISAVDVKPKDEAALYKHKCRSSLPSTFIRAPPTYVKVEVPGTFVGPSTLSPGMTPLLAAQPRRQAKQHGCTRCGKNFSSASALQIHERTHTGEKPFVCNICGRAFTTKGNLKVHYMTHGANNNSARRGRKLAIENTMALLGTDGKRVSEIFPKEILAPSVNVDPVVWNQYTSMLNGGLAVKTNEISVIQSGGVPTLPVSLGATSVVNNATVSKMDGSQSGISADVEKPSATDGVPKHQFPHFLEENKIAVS
Strand	E-score
TCTTCTCA	0.00238
CGGACTAA	-0.135
GCGGGAAA	-0.0258
CGAGACCA	-0.0696
GAGAGCGC	-0.351
GTAAAACA	0.169
GGAAATGA	0.136
GTCCCTGA	-0.0829
CCAGGTTA	-0.0993
CTACAATC	0.179
ATAGATCA	0.234
GATGTTAA	0.0978
TCAAAGGA	0.0902
AGGTGCAT	0.00626
AAACCGCT	-0.103
AAGCCCCA	-0.267
ACGTTGTG	0.0581
AATGACAT	0.183

Further values, each from its own experiment
Organism: Saccharomyces cerevisiae
Effect on: binding
Technique: competitive growth deep sequencing
Molecule type: peptide
Strain: cyclin E1-Cln2 fusion strain
Tested at: concentration not given
Reading: direction not given
Molecule	setting	growth enrichment score
KLLPRKLQFFCDP	Cln2 score subtracted	0.793
IPDRSTKPVVFSPT	tiling library, Cln2 subtracted	0.392
LLRRLQDVANDRG	peptide library 2	0.606
KRCATPVIIDEILPSK	tiling library, Cln2 subtracted	0.866

Some of these lines once more (study 3):
Variant	relative binding score
R69M	92.1%
E14G	88.8%
W41L	-2.78%
K126I	104%
I172G	78.3%
H34C	109%
E152V	93.8%
T173V	95.1%
D96I	85.2%
I172C	92.7%
W41G	-39.3%
C60L	88.7%
I105N	89.4%
V43G	27.9%
